Measurements pooled from the literature.
Every numbered part comes from another study and shows a few of its results, in no order.
Chain of UniProt Q6PHR2 (whole entry, looked up): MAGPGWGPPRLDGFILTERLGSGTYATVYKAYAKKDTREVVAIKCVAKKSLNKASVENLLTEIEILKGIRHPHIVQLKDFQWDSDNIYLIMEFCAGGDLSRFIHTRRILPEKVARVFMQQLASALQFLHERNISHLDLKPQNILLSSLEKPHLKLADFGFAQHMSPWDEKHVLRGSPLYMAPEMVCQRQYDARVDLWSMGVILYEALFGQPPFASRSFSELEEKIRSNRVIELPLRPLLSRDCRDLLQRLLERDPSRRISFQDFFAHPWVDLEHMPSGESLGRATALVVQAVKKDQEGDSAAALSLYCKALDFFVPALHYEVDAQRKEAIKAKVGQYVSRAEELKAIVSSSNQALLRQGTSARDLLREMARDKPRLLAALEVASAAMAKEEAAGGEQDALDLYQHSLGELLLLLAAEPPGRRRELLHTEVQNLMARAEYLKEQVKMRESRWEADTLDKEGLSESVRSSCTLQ
Chain of UniProt P80192 (whole entry, looked up): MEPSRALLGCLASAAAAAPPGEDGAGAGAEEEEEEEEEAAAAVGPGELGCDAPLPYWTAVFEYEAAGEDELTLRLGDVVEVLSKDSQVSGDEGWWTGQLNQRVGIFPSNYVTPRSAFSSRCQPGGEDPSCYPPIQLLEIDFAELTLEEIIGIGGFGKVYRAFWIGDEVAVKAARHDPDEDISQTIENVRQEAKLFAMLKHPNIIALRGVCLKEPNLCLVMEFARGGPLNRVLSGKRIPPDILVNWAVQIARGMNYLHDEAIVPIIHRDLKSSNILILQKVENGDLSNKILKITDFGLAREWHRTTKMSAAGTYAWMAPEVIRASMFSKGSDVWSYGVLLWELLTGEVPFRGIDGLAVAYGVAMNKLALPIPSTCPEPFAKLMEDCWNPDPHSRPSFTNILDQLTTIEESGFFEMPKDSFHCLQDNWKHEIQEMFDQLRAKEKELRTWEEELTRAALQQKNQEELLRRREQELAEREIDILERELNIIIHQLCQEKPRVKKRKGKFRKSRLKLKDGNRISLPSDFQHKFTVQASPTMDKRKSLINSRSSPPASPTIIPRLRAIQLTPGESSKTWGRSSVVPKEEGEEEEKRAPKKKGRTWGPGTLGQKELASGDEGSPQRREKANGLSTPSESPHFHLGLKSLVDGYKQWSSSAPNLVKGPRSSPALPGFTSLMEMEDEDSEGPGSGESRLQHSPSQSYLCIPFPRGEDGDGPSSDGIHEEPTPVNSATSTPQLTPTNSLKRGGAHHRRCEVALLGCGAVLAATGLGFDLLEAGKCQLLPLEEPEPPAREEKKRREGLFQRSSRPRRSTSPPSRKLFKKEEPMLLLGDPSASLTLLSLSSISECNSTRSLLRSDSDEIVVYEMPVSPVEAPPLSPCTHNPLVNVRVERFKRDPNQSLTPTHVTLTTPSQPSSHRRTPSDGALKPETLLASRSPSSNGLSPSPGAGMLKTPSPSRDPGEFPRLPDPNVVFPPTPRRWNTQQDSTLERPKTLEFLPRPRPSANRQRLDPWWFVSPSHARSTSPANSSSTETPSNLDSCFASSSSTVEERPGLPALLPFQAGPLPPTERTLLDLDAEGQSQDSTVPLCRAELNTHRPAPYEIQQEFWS
Chain of UniProt Q8NI60 (whole entry, looked up): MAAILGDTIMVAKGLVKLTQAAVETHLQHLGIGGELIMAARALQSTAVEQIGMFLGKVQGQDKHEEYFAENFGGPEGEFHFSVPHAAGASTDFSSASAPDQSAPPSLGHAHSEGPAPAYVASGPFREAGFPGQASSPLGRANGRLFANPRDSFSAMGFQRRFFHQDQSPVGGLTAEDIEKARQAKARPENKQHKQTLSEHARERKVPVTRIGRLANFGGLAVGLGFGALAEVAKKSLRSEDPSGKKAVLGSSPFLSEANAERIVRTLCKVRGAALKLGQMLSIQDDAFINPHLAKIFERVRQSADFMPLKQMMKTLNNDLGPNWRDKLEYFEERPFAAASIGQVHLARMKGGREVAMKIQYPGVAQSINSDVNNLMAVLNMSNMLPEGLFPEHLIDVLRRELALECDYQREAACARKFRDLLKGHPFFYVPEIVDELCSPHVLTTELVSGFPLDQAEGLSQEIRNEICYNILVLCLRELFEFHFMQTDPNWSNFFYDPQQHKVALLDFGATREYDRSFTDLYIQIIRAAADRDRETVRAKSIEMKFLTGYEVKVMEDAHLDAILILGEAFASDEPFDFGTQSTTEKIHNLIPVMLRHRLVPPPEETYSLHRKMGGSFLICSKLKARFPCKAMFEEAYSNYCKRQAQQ
Chain of UniProt Q96J92 (whole entry, looked up): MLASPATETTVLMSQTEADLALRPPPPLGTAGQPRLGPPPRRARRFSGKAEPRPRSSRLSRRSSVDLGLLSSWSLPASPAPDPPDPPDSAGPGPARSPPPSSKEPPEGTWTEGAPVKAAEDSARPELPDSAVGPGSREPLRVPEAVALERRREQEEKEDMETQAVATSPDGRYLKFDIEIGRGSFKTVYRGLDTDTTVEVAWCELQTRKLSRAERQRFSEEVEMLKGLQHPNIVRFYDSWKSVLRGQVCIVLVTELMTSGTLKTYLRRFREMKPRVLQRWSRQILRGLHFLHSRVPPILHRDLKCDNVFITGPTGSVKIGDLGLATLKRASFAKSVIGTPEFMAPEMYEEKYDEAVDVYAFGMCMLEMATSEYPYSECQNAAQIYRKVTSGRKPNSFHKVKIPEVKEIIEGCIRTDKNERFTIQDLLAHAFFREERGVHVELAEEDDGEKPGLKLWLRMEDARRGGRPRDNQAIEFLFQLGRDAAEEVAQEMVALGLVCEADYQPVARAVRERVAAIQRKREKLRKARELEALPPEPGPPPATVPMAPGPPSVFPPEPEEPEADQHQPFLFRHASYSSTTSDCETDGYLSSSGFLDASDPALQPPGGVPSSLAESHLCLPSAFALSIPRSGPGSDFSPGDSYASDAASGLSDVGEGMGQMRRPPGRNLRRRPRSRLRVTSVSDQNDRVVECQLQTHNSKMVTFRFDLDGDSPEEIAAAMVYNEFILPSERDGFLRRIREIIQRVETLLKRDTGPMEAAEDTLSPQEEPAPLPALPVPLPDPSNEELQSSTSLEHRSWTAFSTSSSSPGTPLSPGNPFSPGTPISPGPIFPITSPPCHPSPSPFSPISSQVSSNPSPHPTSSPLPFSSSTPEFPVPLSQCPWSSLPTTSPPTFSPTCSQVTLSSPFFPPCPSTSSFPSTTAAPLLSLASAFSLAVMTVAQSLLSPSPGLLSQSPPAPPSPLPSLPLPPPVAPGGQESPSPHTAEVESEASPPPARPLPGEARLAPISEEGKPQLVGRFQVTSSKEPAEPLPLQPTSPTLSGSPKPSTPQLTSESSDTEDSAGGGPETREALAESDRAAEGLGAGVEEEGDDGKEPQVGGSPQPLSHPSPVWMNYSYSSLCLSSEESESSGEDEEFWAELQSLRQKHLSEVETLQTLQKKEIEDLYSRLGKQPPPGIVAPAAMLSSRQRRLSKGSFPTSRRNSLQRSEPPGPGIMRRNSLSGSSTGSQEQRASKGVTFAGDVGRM
Chain of UniProt P51812 (whole entry, looked up): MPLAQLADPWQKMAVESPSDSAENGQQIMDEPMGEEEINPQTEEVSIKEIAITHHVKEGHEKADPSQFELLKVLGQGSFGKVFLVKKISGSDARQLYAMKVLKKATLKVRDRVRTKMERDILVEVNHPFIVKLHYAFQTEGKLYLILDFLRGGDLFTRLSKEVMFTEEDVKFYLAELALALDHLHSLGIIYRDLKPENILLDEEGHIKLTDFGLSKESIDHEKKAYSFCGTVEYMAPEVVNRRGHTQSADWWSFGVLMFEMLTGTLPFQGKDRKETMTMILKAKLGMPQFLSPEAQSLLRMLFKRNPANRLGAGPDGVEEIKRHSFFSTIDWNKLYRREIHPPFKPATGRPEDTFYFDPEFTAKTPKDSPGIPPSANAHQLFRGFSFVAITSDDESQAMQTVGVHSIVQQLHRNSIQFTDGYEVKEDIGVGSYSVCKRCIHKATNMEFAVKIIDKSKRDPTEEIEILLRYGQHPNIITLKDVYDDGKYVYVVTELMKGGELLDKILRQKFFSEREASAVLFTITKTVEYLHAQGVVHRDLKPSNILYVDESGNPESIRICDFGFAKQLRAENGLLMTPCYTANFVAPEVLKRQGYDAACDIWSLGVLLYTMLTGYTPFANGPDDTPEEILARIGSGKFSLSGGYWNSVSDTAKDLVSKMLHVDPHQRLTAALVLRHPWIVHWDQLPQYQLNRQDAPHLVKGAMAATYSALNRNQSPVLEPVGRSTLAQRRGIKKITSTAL
Chain of UniProt Q9Y2U5 (whole entry, looked up): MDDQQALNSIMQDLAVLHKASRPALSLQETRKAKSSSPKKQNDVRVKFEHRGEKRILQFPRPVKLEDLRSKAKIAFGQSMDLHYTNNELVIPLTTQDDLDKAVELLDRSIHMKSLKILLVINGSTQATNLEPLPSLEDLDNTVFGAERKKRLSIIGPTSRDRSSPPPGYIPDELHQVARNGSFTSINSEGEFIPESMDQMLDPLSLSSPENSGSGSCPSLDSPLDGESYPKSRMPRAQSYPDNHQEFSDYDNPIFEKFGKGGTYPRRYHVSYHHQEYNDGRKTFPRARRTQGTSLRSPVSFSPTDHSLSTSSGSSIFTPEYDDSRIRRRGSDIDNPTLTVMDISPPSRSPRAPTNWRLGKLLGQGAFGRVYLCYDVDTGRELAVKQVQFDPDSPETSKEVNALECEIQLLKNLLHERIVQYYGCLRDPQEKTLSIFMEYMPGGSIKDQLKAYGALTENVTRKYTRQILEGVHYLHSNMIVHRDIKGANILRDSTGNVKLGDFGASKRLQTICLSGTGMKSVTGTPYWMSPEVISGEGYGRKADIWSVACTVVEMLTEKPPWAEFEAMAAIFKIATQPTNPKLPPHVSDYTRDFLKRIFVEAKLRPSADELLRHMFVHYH

Block 1 — species: human; matrix: microsomes or S9; concentration: 2 µM; time: 0.5 h
Structure (SMILES) | remaining compound
CC(C)(C)c1cc(SCC(=O)O)cc(C(C)(C)C)c1O | > 99%
COc1ncc(NC(=O)CCCNC(=O)OC(C)(C)C)cc1C#N | 75.1%
COc1cc(Br)c(S(=O)(=O)NC2CCN(S(=O)(=O)c3ccccc3)CC2)cc1OC | 93.6%
O=C(OCCCn1ccccc1=O)c1cncc2ccccc12 | 3.09%
CC(C)(C)/N=c1\[nH]c(-c2ccccc2O)nc2ccccc12 | 58.5%
O=C(NC1(c2nnc[nH]2)CCC1)c1cncc(F)c1 | > 100%
CN(CC(=O)O)C(=O)c1cc(S(=O)(=O)N(C)C)cs1 | 80.4%
CC1CCc2cc(F)ccc2N1S(=O)(=O)c1ccc(S(=O)(=O)NC2CCCCC2)cc1 (stereo not shown) | 95.3%
Cc1cc(C)n2c(CN3CCN(C)C[C@@H]3C(C)C)cnc2n1 | 98.3%

Block 2 — cell line: HaCaT; concentration: 100 µM; time: 60 h
Compound | viability [%]
CCOc1cc([C@@H](CS(C)(=O)=O)N2C(=O)c3cccc(NC(C)=O)c3C2=O)ccc1OC | 129
CCN(CC)C(=O)N1CCN(C)CC1 | 144
CC(=O)O[C@H]1Cc2ccccc2N(C(N)=O)c2ccccc21 | 148
O=C(NCCO[N+](=O)[O-])c1cccnc1 | 139
Nc1nc(=O)[nH]cc1F | 129
CC1=NS(=O)(=O)c2cc(Cl)ccc2N1 | 124
CC[C@H](C)C[C@H](C)CCCCCCCCC(=O)N[C@H]1C[C@@H](O)[C@@H](NCCN)NC(=O)[C@@H]2[C@@H](O)CCN2C(=O)[C@H]([C@H](O)CCN)NC(=O)[C@H]([C@H](O)[C@@H](O)c2ccc(O)cc2)NC(=O)[C@@H]2C[C@@H](O)CN2C(=O)[C@H]([C@@H](C)O)NC1=O | 49.7
NC(=O)N1c2ccccc2CCc2ccccc21 | 142
CCCc1cc(C(N)=S)ccn1 | 145

Block 3 — concentration: 1 µM
SMILES: COc1ccc2[nH]c3c4[nH]c5ccc(OC)cc5c4c4c(c3c2c1)C(=O)NC4=O
target | method | measured | with | relative to | remaining binding
Cyclin-dependent kinase 4 (CDK4, Homo sapiens, UniProt P11802) | competitive binding scan | – | cyclin D3 | – | 74%
Receptor-interacting serine/threonine-protein kinase 4 (RIPK4, Homo sapiens, UniProt P57078) | competitive binding panel | – | – | vehicle | 83%
Serine/threonine-protein kinase 17B (STK17B, Homo sapiens, UniProt O94768) | competitive binding panel | DRAK2 | – | vehicle | 2.2%
Protein-tyrosine kinase 2-beta (PTK2B, Homo sapiens, UniProt Q14289) | competitive binding panel | PYK2 | – | vehicle | 68%
Serine/threonine-protein kinase ULK3 (ULK3, Homo sapiens, UniProt Q6PHR2) | competitive binding panel | – | – | vehicle | 43%
Epidermal growth factor receptor (EGFR, Homo sapiens, UniProt P00533, L858R/T790M) | competitive binding panel | – | – | vehicle | 35%
Protein kinase C iota type (PRKCI, Homo sapiens, UniProt P41743) | competitive binding panel | – | – | vehicle | 63%
cGMP-dependent protein kinase 1 (PRKG1, Homo sapiens, UniProt Q13976) | competitive binding panel | – | – | vehicle | 74%
Serine/threonine-protein kinase WNK4 (WNK4, Homo sapiens, UniProt Q96J92) | competitive binding panel | – | – | vehicle | 88%
Rho-associated protein kinase 2 (ROCK2, Homo sapiens, UniProt O75116) | competitive binding panel | – | – | vehicle | 73%
Atypical kinase COQ8A, mitochondrial (COQ8A, Homo sapiens, UniProt Q8NI60) | competitive binding panel | ADCK3 | – | vehicle | 100%
Proto-oncogene tyrosine-protein kinase receptor Ret (RET, Homo sapiens, UniProt P07949) | competitive binding panel | – | – | vehicle | 41%

Block 4 — read-out: cell-free assay; method: competition with immobilised ligand; concentration: 1 µM
Structure (SMILES): COc1ccc2c(c1)O[C@@H](c1ccc(OC)c(OC)c1)C[C@H]2NC(=O)C1(c2ccc3c(c2)OC(F)(F)O3)CC1
target | remaining binding
Mitogen-activated protein kinase kinase kinase 9 (MAP3K9, Homo sapiens, UniProt P80192) | 100%
Epidermal growth factor receptor (EGFR, Homo sapiens, UniProt P00533, L861Q) | 100%
Ephrin type-A receptor 8 (EPHA8, Homo sapiens, UniProt P29322) | 82%
Inhibitor of nuclear factor kappa-B kinase subunit alpha (CHUK, Homo sapiens, UniProt O15111) | 95%
Ribosomal protein S6 kinase alpha-5, N-terminal kinase domain (RPS6KA5, Homo sapiens, UniProt O75582) | 100%
Ribosomal protein S6 kinase beta-1 (RPS6KB1, Homo sapiens, UniProt P23443) | 81%
Mitogen-activated protein kinase kinase kinase 2 (MAP3K2, Homo sapiens, UniProt Q9Y2U5) | 86%
Serine/threonine-protein kinase ULK3 (ULK3, Homo sapiens, UniProt Q6PHR2) | 85%
Serine/threonine-protein kinase PLK4 (PLK4, Homo sapiens, UniProt O00444) | 84%
Cyclin-dependent kinase-like 2 (CDKL2, Homo sapiens, UniProt Q92772) | 100%
Tyrosine-protein kinase ABL1, phosphorylated (ABL1, Homo sapiens, UniProt P00519, H396P) | 86%
Phosphatidylinositol 4,5-bisphosphate 3-kinase catalytic subunit alpha isoform (PIK3CA, Homo sapiens, UniProt P42336, Q546K) | 78%
Epidermal growth factor receptor (EGFR, Homo sapiens, UniProt P00533, T790M) | 82%
Ribosomal protein S6 kinase alpha-3, N-terminal kinase domain (RPS6KA3, Homo sapiens, UniProt P51812) | 81%
Receptor-type tyrosine-protein kinase FLT3 (FLT3, Homo sapiens, UniProt P36888, D835V) | 99%
Non-receptor tyrosine-protein kinase TYK2, JH1 (TYK2, Homo sapiens, UniProt P29597) | 65%

A few entries again (block 2):
Compound | viability [%]
CCN(CC)C(=O)N1CCN(C)CC1 | 144
CC(=O)O[C@H]1Cc2ccccc2N(C(N)=O)c2ccccc21 | 148
CC[C@H](C)C[C@H](C)CCCCCCCCC(=O)N[C@H]1C[C@@H](O)[C@@H](NCCN)NC(=O)[C@@H]2[C@@H](O)CCN2C(=O)[C@H]([C@H](O)CCN)NC(=O)[C@H]([C@H](O)[C@@H](O)c2ccc(O)cc2)NC(=O)[C@@H]2C[C@@H](O)CN2C(=O)[C@H]([C@@H](C)O)NC1=O | 49.7
CCOc1cc([C@@H](CS(C)(=O)=O)N2C(=O)c3cccc(NC(C)=O)c3C2=O)ccc1OC | 129
NC(=O)N1c2ccccc2CCc2ccccc21 | 142
CC1=NS(=O)(=O)c2cc(Cl)ccc2N1 | 124
